Experimental data collected from several papers.
Numbered parts are unrelated; each lists some results of a single study.
Chain of UniProt P19784 (whole entry, looked up): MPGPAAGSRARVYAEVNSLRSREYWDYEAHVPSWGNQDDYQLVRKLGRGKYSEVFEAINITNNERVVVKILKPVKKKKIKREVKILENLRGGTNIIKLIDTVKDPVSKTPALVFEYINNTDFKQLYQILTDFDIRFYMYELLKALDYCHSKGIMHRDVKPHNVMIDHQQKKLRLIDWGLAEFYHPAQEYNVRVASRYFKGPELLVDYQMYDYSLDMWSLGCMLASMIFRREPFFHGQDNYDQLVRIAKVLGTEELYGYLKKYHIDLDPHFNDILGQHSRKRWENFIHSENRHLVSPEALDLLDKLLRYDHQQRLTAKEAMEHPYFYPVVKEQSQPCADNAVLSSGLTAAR
Chain of UniProt O75460 (whole entry, looked up): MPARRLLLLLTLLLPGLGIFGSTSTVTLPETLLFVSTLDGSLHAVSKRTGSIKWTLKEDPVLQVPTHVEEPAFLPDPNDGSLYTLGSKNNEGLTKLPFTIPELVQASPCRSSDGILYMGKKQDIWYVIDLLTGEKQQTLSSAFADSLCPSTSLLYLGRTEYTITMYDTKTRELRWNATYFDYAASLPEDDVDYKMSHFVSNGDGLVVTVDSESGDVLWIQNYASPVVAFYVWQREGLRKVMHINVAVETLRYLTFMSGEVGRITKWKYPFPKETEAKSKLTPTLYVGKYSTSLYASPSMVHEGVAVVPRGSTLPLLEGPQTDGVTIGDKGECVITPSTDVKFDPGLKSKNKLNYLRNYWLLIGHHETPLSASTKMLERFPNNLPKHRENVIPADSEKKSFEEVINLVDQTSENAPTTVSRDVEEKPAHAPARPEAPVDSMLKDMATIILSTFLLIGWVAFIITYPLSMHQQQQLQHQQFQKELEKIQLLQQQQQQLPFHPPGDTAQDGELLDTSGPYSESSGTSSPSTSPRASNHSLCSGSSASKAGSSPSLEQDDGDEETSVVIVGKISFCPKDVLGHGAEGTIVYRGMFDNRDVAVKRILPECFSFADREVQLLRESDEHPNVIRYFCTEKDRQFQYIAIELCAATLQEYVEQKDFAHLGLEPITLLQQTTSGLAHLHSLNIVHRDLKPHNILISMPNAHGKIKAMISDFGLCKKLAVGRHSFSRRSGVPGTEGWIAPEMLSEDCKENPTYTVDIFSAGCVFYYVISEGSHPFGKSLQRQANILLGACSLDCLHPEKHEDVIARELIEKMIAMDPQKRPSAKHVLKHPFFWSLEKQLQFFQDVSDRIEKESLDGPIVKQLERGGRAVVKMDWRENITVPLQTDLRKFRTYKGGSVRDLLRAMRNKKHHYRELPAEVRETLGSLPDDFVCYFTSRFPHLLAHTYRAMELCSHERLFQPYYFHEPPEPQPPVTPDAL
Chain of UniProt Q13233 (whole entry, looked up): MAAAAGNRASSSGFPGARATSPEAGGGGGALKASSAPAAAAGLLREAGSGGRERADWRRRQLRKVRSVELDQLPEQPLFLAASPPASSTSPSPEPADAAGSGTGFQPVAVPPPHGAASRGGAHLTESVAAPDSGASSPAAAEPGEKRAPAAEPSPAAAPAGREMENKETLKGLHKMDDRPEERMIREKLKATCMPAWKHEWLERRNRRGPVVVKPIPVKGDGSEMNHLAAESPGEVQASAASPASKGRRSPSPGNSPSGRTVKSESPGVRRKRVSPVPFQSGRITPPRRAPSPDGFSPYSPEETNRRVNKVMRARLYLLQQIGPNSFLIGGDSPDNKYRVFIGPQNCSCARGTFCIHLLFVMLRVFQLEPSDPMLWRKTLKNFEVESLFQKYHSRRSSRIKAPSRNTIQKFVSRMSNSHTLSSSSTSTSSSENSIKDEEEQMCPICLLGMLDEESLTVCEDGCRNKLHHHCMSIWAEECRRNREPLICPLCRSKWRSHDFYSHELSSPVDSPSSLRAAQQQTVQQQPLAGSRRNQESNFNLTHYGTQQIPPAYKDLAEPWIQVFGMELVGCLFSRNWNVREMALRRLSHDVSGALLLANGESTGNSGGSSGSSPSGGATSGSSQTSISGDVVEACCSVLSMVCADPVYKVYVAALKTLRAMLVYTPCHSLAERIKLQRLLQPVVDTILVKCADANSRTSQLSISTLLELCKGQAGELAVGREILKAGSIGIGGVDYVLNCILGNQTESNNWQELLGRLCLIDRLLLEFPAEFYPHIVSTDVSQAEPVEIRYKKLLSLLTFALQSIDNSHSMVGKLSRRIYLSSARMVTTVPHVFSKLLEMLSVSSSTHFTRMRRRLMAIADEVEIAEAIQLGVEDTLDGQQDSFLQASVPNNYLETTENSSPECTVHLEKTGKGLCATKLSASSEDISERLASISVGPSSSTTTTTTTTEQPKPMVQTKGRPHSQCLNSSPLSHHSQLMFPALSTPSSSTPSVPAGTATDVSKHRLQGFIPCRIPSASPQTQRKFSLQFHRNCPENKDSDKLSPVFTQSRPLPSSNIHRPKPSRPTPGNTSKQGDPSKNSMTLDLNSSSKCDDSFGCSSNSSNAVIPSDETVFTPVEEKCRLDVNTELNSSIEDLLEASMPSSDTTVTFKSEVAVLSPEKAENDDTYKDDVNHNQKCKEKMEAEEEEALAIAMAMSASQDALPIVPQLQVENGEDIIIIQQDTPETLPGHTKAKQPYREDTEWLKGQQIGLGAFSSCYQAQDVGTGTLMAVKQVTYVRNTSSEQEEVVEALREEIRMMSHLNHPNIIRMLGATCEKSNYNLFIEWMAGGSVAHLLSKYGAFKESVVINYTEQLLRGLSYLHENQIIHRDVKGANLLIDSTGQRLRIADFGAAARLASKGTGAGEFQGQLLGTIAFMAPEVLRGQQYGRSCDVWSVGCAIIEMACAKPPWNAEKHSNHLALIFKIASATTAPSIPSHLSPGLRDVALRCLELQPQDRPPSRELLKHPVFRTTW
Chain of UniProt Q14680 (whole entry, looked up): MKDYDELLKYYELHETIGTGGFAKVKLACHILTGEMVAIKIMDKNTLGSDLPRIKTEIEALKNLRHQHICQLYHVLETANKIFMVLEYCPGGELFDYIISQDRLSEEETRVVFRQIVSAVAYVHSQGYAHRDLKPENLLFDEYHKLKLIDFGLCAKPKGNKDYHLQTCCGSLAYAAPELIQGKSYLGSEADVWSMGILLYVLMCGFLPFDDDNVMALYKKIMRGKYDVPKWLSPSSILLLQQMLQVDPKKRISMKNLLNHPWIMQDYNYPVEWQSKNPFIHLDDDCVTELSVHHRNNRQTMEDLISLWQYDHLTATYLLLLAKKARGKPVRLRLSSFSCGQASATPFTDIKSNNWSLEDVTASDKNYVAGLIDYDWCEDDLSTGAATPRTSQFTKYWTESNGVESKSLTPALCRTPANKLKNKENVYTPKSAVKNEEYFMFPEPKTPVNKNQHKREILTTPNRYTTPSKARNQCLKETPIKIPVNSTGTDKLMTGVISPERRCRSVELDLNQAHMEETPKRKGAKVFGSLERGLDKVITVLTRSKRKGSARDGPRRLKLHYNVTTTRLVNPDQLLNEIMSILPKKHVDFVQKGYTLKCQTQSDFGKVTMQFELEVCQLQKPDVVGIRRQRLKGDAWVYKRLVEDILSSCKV
Chain of UniProt Q15759 (whole entry, looked up): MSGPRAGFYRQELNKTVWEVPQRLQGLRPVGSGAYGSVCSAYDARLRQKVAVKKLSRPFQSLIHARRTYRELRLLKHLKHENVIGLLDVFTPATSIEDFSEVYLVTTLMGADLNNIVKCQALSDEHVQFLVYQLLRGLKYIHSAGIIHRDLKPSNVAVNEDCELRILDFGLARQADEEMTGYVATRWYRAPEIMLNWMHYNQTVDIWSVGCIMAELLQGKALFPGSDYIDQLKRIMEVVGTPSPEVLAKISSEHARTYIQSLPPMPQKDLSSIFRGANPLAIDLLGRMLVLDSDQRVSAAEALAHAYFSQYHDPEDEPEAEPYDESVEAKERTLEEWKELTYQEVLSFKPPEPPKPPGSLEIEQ
Chain of UniProt P49841 (whole entry, looked up): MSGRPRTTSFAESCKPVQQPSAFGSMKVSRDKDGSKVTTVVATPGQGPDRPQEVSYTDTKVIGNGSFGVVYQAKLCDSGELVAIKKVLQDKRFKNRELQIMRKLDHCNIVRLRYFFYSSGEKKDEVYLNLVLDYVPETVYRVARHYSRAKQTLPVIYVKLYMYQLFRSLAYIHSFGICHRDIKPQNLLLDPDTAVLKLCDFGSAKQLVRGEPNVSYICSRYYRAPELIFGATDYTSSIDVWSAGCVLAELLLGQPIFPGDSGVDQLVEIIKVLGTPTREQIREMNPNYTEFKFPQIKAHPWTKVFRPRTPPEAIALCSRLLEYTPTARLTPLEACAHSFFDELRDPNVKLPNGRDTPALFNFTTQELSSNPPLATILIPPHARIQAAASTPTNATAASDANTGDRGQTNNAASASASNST

Set 1
Host: human
Matrix: microsomes or S9
Tested at: 2 µM
Time: 0.5 h
Compound | remaining compound [%]
CN(Cc1ccccc1)C(=O)COc1ccc2c3ccccc3n(C(=O)c3ccc(C(C)(C)C)cc3)c2c1 | 7.15
CC1(C)C=C(N2CCCC2=O)c2cc(C#N)ccc2O1 | 74.3
O=C(Nc1ccncc1)c1nn(Cc2ccccc2)c2c1CCc1ccccc1-2 | 67.1
CC(=O)Nc1ccc(C(=O)N(Cc2cccnc2)C2(C(=O)NCc3ccccc3)CCN(C(C)=O)CC2)cc1 | 74.7
CCC(CC)(CC)S(=O)(=O)Cc1csc(C(C)(C)C)n1 | 0.191
Cc1ccc(-n2nc(C)c(NCc3cnn(C)c3)c2C)cc1 | 71.1
O=C1C=C(N(Cc2ccc(Cl)nc2)Cc2cnc(Cl)s2)CO1 | 71.1
COc1cc(=O)n(C)cc1C(=O)NCCc1ccc(S(N)(=O)=O)cc1 | 74
O=C(NC1CCN(Cc2ccc(OC3CCNCC3)c(Br)c2)CC1)c1cc2cc(F)ccc2n1S(=O)(=O)c1ccccc1 | 59.2
CN1C(=O)C2(NCCc3c2[nH]c2ccccc32)c2ccccc21 (stereo not drawn) | 55.8
Cc1c(-c2cc(Cn3ccnc3C(C)C)on2)cnn1C | 94
CCOc1ccc(S(=O)(=O)N2CCN(C)CC2)cc1-c1nc(O)c2c(n1)c(C(C)(C)C)nn2C | 1.02
COC(=O)c1cccnc1C1=NC(C)(C(C)C)C(=O)N1 (stereo not drawn) | > 100
CCOc1ccc(S(=O)(=O)N2CCC(Oc3nccnc3C#N)C2)cc1C (stereo not drawn) | 0.276

Set 2
SMILES: FC(F)(F)c1ccc2c(c1)nc(-c1cccnc1)n2C1CC1
Observed: cell-free assay
Method: competition with immobilised ligand
Tested at: 1 µM
target | remaining binding
Aurora kinase C (AURKC, Homo sapiens, UniProt Q9UQB9) | 100%
Serine/threonine-protein kinase TAO3 (TAOK3, Homo sapiens, UniProt Q9H2K8) | 100%
Serine/threonine-protein kinase SIK2 (SIK2, Homo sapiens, UniProt Q9H0K1) | 100%
Receptor-type tyrosine-protein kinase FLT3 (FLT3, Homo sapiens, UniProt P36888, D835V/ITD) | 92%
Hepatocyte growth factor receptor (MET, Homo sapiens, UniProt P08581, M1250T) | 100%
Mitogen-activated protein kinase kinase kinase kinase 2 (MAP4K2, Homo sapiens, UniProt Q12851) | 73%
Mitogen-activated protein kinase 11 (MAPK11, Homo sapiens, UniProt Q15759) | 100%
Myosin light chain kinase family member 4 (MYLK4, Homo sapiens, UniProt Q86YV6) | 100%
Mitogen-activated protein kinase kinase kinase 1 (MAP3K1, Homo sapiens, UniProt Q13233) | 100%
Serine/threonine-protein kinase 36 (STK36, Homo sapiens, UniProt Q9NRP7) | 84%
Glycogen synthase kinase-3 beta (GSK3B, Homo sapiens, UniProt P49841) | 100%
Dual specificity mitogen-activated protein kinase kinase 1 (MAP2K1, Homo sapiens, UniProt Q02750) | 94%
Maternal embryonic leucine zipper kinase (MELK, Homo sapiens, UniProt Q14680) | 94%
Dual specificity tyrosine-phosphorylation-regulated kinase 1B (DYRK1B, Homo sapiens, UniProt Q9Y463) | 53%
Ribosomal protein S6 kinase alpha-4, N-terminal kinase domain (RPS6KA4, Homo sapiens, UniProt O75676) | 99%
Receptor-type tyrosine-protein kinase FLT3, autoinhibited (FLT3, Homo sapiens, UniProt P36888) | 100%
Serine/threonine-protein kinase/endoribonuclease IRE1 (ERN1, Homo sapiens, UniProt O75460) | 100%
Casein kinase I isoform delta (CSNK1D, Homo sapiens, UniProt P48730) | 100%
Casein kinase II subunit alpha' (CSNK2A2, Homo sapiens, UniProt P19784) | 100%
Cyclin-dependent kinase 17 (CDK17, Homo sapiens, UniProt Q00537) | 100%
Serine/threonine-protein kinase MRCK beta (CDC42BPB, Homo sapiens, UniProt Q9Y5S2) | 100%
Epidermal growth factor receptor (EGFR, Homo sapiens, UniProt P00533, T790M) | 87%
Serine/threonine-protein kinase Nek3 (NEK3, Homo sapiens, UniProt P51956) | 88%
Epidermal growth factor receptor (EGFR, Homo sapiens, UniProt P00533, del746-750) | 100%
Mitogen-activated protein kinase kinase kinase 15 (MAP3K15, Homo sapiens, UniProt Q6ZN16) | 100%

Set 3
Compound: C[C@H]1CC[C@H](n2c3cnccc3c3cnc(Nc4ccc5c(n4)CCN(C(=O)CO)C5)nc32)CC1
Observed: cell-free assay
Tested at: 1 µM
target | remaining signal
Mast/stem cell growth factor receptor Kit (KIT, Homo sapiens, UniProt P10721, V559D) | 6.3%
Casein kinase II subunit alpha' (CSNK2A2, Homo sapiens, UniProt P19784) | 0.15%
Testis-specific serine/threonine-protein kinase 1 (TSSK1B, Homo sapiens, UniProt Q9BXA7) | 91%
Serine/threonine-protein kinase Nek4 (NEK4, Homo sapiens, UniProt P51957) | 100%
Interleukin-1 receptor-associated kinase 4 (IRAK4, Homo sapiens, UniProt Q9NWZ3) | 63%
Serine/threonine-protein kinase PAK 5 (PAK5, Homo sapiens, UniProt Q9P286) | 100%
cAMP-dependent protein kinase catalytic subunit alpha (PRKACA, Homo sapiens, UniProt P17612) | 100%
Serine/threonine-protein kinase PRP4 homolog (PRPF4B, Homo sapiens, UniProt Q13523) | 91%
Serine/threonine-protein kinase 17A (STK17A, Homo sapiens, UniProt Q9UEE5) | 100%
Epidermal growth factor receptor (EGFR, Homo sapiens, UniProt P00533, L858R) | 95%
Phosphatidylinositol 4,5-bisphosphate 3-kinase catalytic subunit alpha isoform (PIK3CA, Homo sapiens, UniProt P42336, I800L) | 80%
Serine/threonine-protein kinase 24 (STK24, Homo sapiens, UniProt Q9Y6E0) | 52%
Proto-oncogene tyrosine-protein kinase receptor Ret (RET, Homo sapiens, UniProt P07949, V804L) | 67%
Dual specificity tyrosine-phosphorylation-regulated kinase 2 (DYRK2, Homo sapiens, UniProt Q92630) | 13%

Set 4
Target: MAP kinase-activated protein kinase 5 (MAPKAPK5, Homo sapiens, UniProt Q8IW41)
Chain of UniProt Q8IW41 (whole entry, looked up): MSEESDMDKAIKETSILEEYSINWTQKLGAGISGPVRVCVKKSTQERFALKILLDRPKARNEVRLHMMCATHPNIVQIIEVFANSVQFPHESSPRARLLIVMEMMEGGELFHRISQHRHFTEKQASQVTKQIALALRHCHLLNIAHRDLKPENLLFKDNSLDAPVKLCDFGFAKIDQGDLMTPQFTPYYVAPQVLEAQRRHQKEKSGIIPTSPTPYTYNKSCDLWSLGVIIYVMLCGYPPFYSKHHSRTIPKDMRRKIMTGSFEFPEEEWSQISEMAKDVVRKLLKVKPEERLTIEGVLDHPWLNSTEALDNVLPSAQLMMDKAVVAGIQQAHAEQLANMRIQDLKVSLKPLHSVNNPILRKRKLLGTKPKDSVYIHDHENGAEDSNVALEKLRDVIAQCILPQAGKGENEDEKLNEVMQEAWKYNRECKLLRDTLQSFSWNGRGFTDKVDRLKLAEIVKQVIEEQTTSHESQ
Observed: enzyme activity
Action: inhibitor
Tested at: 0.5 µM
Relative to: control
SMILES | remaining activity
O=c1c2ccccc2[nH]c(=S)n1CCN1CCC(=C(c2ccc(F)cc2)c2ccc(F)cc2)CC1 | 101%
N#CC(C#N)=C(N)/C(C#N)=C/c1ccc(O)cc1 | 94.2%
COc1cc2ncnc(Nc3ccc(Oc4ccccc4)cc3)c2cc1OC | 98%
C#Cc1cccc(Nc2ncnc3cc(OCCOC)c(OCCOC)cc23)c1 | 89.7%
Cc1ccc(Nc2nccc(N(C)c3ccc4c(C)n(C)nc4c3)n2)cc1S(N)(=O)=O | 100%
O=C(O)c1ccc2c3c1cccc3c(=O)n1c3ccccc3nc21 | 96%
CNC(=O)c1cc(Oc2ccc(NC(=O)Nc3ccc(Cl)c(C(F)(F)F)c3)cc2)ccn1 | 95.8%
O=C(CCCc1ccc(-c2ccccc2F)cc1)Nc1ccc(O)cc1 | 91.4%
Cc1nc(-c2ccccc2)c(-c2ccncc2)o1 | 99.2%
CC(C)[C@H](CO)Nc1nc(Nc2cc(N)cc(Cl)c2)c2ncn(C(C)C)c2n1 | 95.8%
COc1ccc(C(=O)Nc2sc3c(c2C(N)=O)CCCC3)cc1OC | 86.4%
Cc1cccc(-c2[nH]c(C(C)(C)C)nc2-c2ccc3c(c2)OCO3)n1 | 96.1%
Cn1c2ccccc2c2c3c(c4c5ccccc5n(CCC#N)c4c21)CNC3=O | 127%
O=C1NC(=O)C(c2cn(CCCO)c3ncccc23)=C1c1cnccn1 | 98.6%
CN(C)c1ccc(C=C2C(=O)Nc3ccccc32)cc1 | 98.6%
O=C1NC(=O)C(c2cn(CCCn3ccnc3)c3ccccc23)=C1Nc1ccccc1 | 96.4%

Repeated from above (set 2):
target | remaining binding
Mitogen-activated protein kinase 11 (MAPK11, Homo sapiens, UniProt Q15759) | 100%
Serine/threonine-protein kinase/endoribonuclease IRE1 (ERN1, Homo sapiens, UniProt O75460) | 100%
Serine/threonine-protein kinase MRCK beta (CDC42BPB, Homo sapiens, UniProt Q9Y5S2) | 100%
Myosin light chain kinase family member 4 (MYLK4, Homo sapiens, UniProt Q86YV6) | 100%
Cyclin-dependent kinase 17 (CDK17, Homo sapiens, UniProt Q00537) | 100%
Hepatocyte growth factor receptor (MET, Homo sapiens, UniProt P08581, M1250T) | 100%
